Published values gathered from unrelated publications.
A part holds a random share of what one study measured.

Set 1
Target: Ras GTPase-activating protein-binding protein 1, C-terminal RGG region (G3BP1, Homo sapiens, UniProt Q13283)
Sequence of UniProt Q13283 (whole entry, looked up): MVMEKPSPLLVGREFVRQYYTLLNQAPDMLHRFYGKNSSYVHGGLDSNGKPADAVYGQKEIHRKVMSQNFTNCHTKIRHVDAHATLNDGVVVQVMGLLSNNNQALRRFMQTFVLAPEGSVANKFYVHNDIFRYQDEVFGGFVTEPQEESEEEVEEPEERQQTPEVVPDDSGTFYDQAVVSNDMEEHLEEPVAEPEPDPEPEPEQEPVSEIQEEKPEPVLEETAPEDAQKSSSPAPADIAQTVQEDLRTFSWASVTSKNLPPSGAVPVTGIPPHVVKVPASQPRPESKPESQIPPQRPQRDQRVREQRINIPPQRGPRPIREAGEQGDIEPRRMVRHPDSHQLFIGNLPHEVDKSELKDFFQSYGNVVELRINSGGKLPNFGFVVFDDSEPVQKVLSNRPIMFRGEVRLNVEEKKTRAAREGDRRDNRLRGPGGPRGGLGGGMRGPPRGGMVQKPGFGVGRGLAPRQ
Method: RNA Bind-n-Seq
Molecule type: RNA
Matrix: in vitro
Tested at: 1 µM
Setting: whole 134-nt RNA, ends assumed
Together with: 150 mM KCl
Reference: input library
Reading: higher = stronger binding
Endpoint: log2 enrichment
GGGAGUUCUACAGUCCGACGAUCCUCAAGUCCUGUGCUACACAUCGUAUGUACCGAAUCGGCCGGCCGGGCCGGGGAAAGUAUUAUGUUACGCCGUUCGGAUCUGCACUUCCAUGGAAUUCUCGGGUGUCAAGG: -1.25
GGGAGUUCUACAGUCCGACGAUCCAAGUCCUGUGCUACACAUCGUAUGUACCGAAUCGGGGCCCGGCCCGGGCCCGGGGAAAGUAUUAUGUUACGCCGUUCGGAUCUGCACUUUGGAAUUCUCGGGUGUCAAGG: -2.16
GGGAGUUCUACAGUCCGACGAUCCACAGACAACACGCACCCACACAGACACAGAGGGAAGCGGUUGGGAUGGGGACAGGGUGCACAGCAGGGCGGGGUAGGACCCCAGCCCCUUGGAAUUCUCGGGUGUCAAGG: -0.479
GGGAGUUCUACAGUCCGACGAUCUAACUUUAGAGGAGGAUCUGAUGGAUAUGGCAGUGGACGUGCAUUUGGGGAUGGCUAUAAUGGGUAUGGAGGAGGACCUGGAGGUGGCAAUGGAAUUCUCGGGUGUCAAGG: -1.3
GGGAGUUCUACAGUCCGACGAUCUCUUUAUUUGAGCCAGUCUUGCAAGGUUAACUUCUCACUGGGCCUAGUGUGGUGCCCAGGUUUUUGCCUUGCUUCACUUCUGUCUCUACAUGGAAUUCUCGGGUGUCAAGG: -1.66
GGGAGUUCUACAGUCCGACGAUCGUCCUGUGCUACACAUCGUAUGUACCGAAUCGGGAAAAAGGGAAAAAGGGGAAAAAGGAAAGUAUUAUGUUACGCCGUUCGGAUCUGCACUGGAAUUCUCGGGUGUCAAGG: -1.12
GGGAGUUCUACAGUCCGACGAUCAGUCCUGUGCUACACAUCGUAUGUACCGAAUCGGGCCCCGGGGCCCCGGGCCCCGGGGAAAGUAUUAUGUUACGCCGUUCGGAUCUGCACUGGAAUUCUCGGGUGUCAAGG: -2.94
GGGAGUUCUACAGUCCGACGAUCUAACUUUAGAGGAGGAUCUGAUGGAUAUGGCAGUGGAGGUGGAUUUGGGGAUGGCUAUAAUGGGUAUGGAGGAGGACCUGGAGGUGGCAAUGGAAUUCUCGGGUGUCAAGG: -0.858
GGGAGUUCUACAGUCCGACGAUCCCUGUGCUACACAUCGUAUGUACCGAAUCGGCCCCCCGGGGCCCCCCGGGCCCCCCGGGGAAAGUAUUAUGUUACGCCGUUCGGAUCUGCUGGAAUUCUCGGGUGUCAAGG: -2.33
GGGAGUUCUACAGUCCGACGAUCGCAGGAAGUAAAAACAAAUGGAAAUGCUUCGGAUAGUGGCAGGGGUGGUGGUUGCUAAGGAAAGGGUGGGAUGGGAGUGGGUAAAGAGUUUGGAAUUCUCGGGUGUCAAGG: 1.86

Set 2
Target: Sal-like protein 4, full length isoform B (SALL4, Homo sapiens, UniProt Q9UJQ4-2, residues 1-616)
Method: universal PBM
Molecule type: double-stranded DNA, one strand shown
Matrix: in vitro
Tested at: not given
Setting: 8-mer, flanks averaged, mean of replicates
Reading: higher = stronger binding
Endpoint: E-score
Target sequence (chain): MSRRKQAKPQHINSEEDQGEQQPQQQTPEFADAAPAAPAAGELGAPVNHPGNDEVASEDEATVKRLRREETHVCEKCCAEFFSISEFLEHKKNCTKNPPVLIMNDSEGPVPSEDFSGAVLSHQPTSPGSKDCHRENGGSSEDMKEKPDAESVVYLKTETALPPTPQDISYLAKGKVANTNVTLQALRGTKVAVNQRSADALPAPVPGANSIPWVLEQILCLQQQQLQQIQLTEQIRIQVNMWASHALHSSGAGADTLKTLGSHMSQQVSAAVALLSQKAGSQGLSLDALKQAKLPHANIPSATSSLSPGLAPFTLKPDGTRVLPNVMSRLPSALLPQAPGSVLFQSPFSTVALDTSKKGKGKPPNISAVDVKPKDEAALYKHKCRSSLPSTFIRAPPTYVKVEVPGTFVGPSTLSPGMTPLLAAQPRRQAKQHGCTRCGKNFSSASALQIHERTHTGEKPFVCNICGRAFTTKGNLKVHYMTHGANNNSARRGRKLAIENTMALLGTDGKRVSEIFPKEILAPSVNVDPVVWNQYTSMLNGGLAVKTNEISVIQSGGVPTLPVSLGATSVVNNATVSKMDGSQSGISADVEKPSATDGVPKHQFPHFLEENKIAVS
CAATTCCG: -0.125
GAATAGAC: 0.0569
CAGGAATA: 0.165
AACAGATA: 0.142
ACCGTTAA: 0.137
ACGGGTTA: 0.0646
TACGCTCA: 0.154
GCTTCGCA: -0.0319
CGGGTCAA: -0.27
TGCCTTAA: -0.0369
GCAAAGTA: 0.155
ACGCCTCC: -0.178
GCGCTAGC: -0.222
ACAGCTCT: -0.13
AGCCATTC: -0.148
AGAGTAGG: 0.0977
AGAGCCTC: -0.215
GATGCACC: -0.104
CTCTGCAG: -0.188
AGTTCAGG: -0.0952
CTGCCCGA: -0.216
TCATGGAA: 0.262
CTATCGAC: -0.136

Set 3
Target: Histone acetyltransferase KAT6A, both winged helices, GST fusion (KAT6A, Homo sapiens, UniProt Q92794, residues 1-181)
Method: protein binding microarray
Molecule type: double-stranded DNA, one strand shown
Matrix: in vitro
Tested at: not given
Setting: 8-mer, flanks averaged, mean of 2 arrays, mostly near background
Reference: not given
Reading: higher = stronger binding
Endpoint: E-score
Construct (chain): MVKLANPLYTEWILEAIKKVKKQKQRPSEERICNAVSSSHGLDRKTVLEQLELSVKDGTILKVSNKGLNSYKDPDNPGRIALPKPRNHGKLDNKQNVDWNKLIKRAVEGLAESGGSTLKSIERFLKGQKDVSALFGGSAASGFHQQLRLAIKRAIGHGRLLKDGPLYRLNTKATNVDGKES
CAAGGCCA: -0.105
CAAAGGTG: -0.105
CATAAAGC: -0.0785
GTATGGTA: -0.0473
CAGTGGGG: -0.23
ATGAGCTA: -0.0314
ATGCATCG: 0.00737
ATTTAGTG: -0.181
AACAACTT: -0.0209
AAGCAAAT: -0.169
ATGCGATA: 0.0519
AACTCTCC: -0.142
CATTAGTA: -0.073
ACCGATCC: 0.0268
TCGCGCGA: 0.384
GCGGGCAA: 0.18
TGGACCCA: -0.12
CTCCAGGA: -0.142
ACGACAAA: 0.0326
AGTTCTAG: -0.114
TACCTAAA: -0.099
ACGCCCCT: -0.0821
ACACGAGG: -0.245
ACGCAAGC: 0.0938
GCAATCTA: -0.0387

Set 4
Target: RING finger protein unkempt homolog, zinc fingers 1-6, GST-SBP tag (UNK, Homo sapiens, UniProt Q9C0B0, residues 30-357)
Method: RNA Bind-n-Seq
Molecule type: RNA
Matrix: in vitro
Tested at: not given
Setting: RNA with constant flanks, ends assumed
Reference: input RNA pool
Reading: higher = stronger binding
Endpoint: bound/input enrichment
Residues (chain): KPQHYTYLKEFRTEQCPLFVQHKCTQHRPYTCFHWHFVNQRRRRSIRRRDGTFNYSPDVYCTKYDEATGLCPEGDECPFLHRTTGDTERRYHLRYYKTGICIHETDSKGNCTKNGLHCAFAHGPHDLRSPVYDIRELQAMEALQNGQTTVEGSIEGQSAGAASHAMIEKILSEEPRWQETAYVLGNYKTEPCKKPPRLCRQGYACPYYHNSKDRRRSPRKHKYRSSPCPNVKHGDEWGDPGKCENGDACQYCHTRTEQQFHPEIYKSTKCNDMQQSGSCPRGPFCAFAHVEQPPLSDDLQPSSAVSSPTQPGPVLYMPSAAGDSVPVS
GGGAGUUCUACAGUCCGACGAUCUAUAUUUUGGAUUCUGUUUGUGUUGAAUUUUUUAAUCAUUGUGCACAGAAGCAUCAUUGGCCGCUUUUAUAUGCAAAUGGUCAUUUCAGAUGUAUGGUGUUUUUACACUACAAAGAAGUCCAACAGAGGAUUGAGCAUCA: 0.126 ratio
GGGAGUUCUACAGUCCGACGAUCAAAGUGAAACUGGCAGCUGUGGAUGCUACAGUCAAUCAGGUUCUGGCCUCCCGAUACGGGAUCCGAGGAUUUCCUACAAUCAAGAUAUUUCAGAAAGGCGAGUCUCCUGUGGAUUAUGACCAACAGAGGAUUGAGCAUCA: 0.169 ratio
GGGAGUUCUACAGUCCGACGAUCGAGGACACUGGACUAAAUGAUUGCCCAGUUUCCAGCUAGUCCUAGAGUUCUAUAUUUCUACACCGUUGAAUUAUUUUAUCAUGCGGUUGCUGGGGAAUACAACUAACACUUUUGAAGCUACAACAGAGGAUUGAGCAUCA: 1.26 ratio
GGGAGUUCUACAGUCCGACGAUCGAGCUGGGAUACAAGCAAGAAAGAUCUGACUGAAUAUUUGUCUCGAUUUGGGGAAGUGGCCGACUGCACAAUUAAAACAGACCCAGUCACGGGAAGAUCAAGAGGAUUUGGAUUUGUGCUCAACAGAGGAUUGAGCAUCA: 0.492 ratio
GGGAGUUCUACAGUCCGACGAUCGUUUUUGGCAAACAUGUCAGCAACGCACCGCUUACUAAACUGCCGAUCAAAUGUUUCCCCGAUUUCAAAGCAGGAGGAUCCCUCUGCCAUAUUCUUGCAGCUGCCUACAAAUUCAAGAGUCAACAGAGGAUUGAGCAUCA: 0.147 ratio
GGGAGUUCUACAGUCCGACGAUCCCCAACAACACAGUAGUUGGGUCAUCAUAUGUACUUUUUGUCUUAUCGAUUUUCUUCACAACCGCCGGACUUCUGUUUGCUGGCAAAGUCUGUUUACCAGGCUGACGAAUGUCUAAACGGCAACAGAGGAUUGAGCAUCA: 0.119 ratio
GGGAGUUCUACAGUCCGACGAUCCUUCUACCGGGCGCCCCACGGGCCGAAGCCGCUCCAGUGUGCUGCUCUGCUCGUUACAACUCCGCAAUUUUGGCCUUUUUUGGUUUCUUCAUUGUGUAUGCAUUACGUGUGAAUCUGAGUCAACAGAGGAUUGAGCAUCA: 0.0948 ratio
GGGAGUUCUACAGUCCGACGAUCUUAAUAGGCUUAAUAAUUGUUGGCAAAGAUCCUUUUGCUUUUUUCGGCAUGCAAGCUCCCCGCAUCUGGCAGUGGGGCCAAGAAAAUAAGGUUUAUGCAUGUAUGAUGGUUUUCUUCCUGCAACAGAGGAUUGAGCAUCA: 1.02 ratio
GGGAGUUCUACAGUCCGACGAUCUUAAAAAAAUCACUAAAUUGUGCCUAAAGAACAUAACUGCCAUAUUAAUGUUUUUAUUUCUACCGUAUUAGAAAAACAUUUAAUACUUGUAGCAUUGAUGUGUUGAUUUGAUACCAGUUGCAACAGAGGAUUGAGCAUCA: 0.258 ratio
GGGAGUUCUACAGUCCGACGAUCUAACUUAUUUUUCGUUAAAGUUUGACUGAAACACGCUUCUACCAAAUACAGUAUAAAUAAUCCGGCCGUCUUAAUGCCUUUCCUAUUUUUUUUUCCUUUUCACACAAAAUGUACACAAAGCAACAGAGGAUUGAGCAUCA: 1.67 ratio
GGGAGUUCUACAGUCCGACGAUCAAUAUCAACUAAAAUAUCAUAGUUCUGUGGUAGACAUUGUUUUAUAAUGAAAUAACUGCAACCCGAGAAAACUGUAUAAAAACAUUAAAUUGUCAGUAUUUUUGUAAGGUUCCAUUUUGUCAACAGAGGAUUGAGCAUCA: 0.482 ratio

Repeated from above (set 2):
TCATGGAA: 0.262
AGTTCAGG: -0.0952
ACGGGTTA: 0.0646
AGAGTAGG: 0.0977
CGGGTCAA: -0.27
GCGCTAGC: -0.222
AACAGATA: 0.142
GATGCACC: -0.104
AGCCATTC: -0.148
